Measured values gathered from unrelated publications.
Compare with care: the assays were run in different laboratories.
Organism: Salmonella enterica

COc1c(CC=C(C)C)c(O)cc2c1[C@@H]1Oc3c(ccc(O)c3CC=C(C)C)[C@@H]1CO2 has an MIC of 128 µg/mL (microbial growth; TYPHI).
With N=C(N)NCCC[C@@H]1NC(=O)[C@H](CCCNC(=N)N)NC(=O)[C@H](CCCNC(=N)N)NC(=O)[C@H](CCCNC(=N)N)NC(=O)[C@H](Cc2c[nH]c3ccccc23)NC(=O)[C@H](CCCNC(=N)N)NC(=O)[C@H](CCCNC(=N)N)NC(=O)[C@@H](N)CCCn2cc(nn2)C[C@@H](C(N)=O)NC1=O the MIC was 250 µg/mL (24 h, 37 °C).
With COc1c(CC=C(C)C)c(O)cc2c1-c1oc3c(CC=C(C)C)c(O)ccc3c1CO2 the MIC was 128 µg/mL (microbial growth; TYPHI).
With Cc1c2oc3c(C)ccc(C(=O)N[C@@H]4C(=O)N[C@H](C(C)C)C(=O)N5[C@H](C(=O)N(C)CC(=O)N(C)[C@@H](C(C)C)C(=O)O[C@@H]4C)[C@@H](O)C[C@@H]5C)c3nc-2c(C(=O)N[C@@H]2C(=O)N[C@H](C(C)C)C(=O)N3CC(=O)C[C@H]3C(=O)N(C)CC(=O)N(C)[C@@H](C)C(=O)O[C@@H]2CCl)c(N)c1=O the MIC was greater than 9.2 µg/mL (broth microdilution; ATCC 10708; 16 to 48 h).
N#Cc1ccc2cccc(O)c2n1 gave an MIC of greater than 1500 µM (microbial growth, agar dilution; ATCC10708 CHOLERAESUIS).
N=C(N)NCCC[C@@H]1NC(=O)[C@H](CCCNC(=N)N)NC(=O)[C@H](CCCNC(=N)N)NC(=O)[C@H](CCCNC(=N)N)NC(=O)[C@H](Cc2c[nH]c3ccccc23)NC(=O)[C@H](CCCNC(=N)N)NC(=O)[C@H](CCCNC(=N)N)NC(=O)[C@@H](N)CCn2cc(nn2)C[C@@H](C(N)=O)NC1=O has an MIC of 250 µg/mL (24 h, 37 °C).
Under “inhibition zone diameter”, CC(=O)[O-].O.O.O.O.[Mn+2].[O-]c1ccc(Br)cc1C=NCCN1CCOCC1 is recorded as 16 mm (serovar Typhi; 20 µL of 100 µM per disc).
With CC[C@H](C)[C@H](NC(=O)[C@H](CCCCN)NC(=O)[C@H](CCCCN)NC(=O)[C@H](CC(C)C)NC(=O)[C@H](CCCCN)NC(=O)[C@H](CCC(=O)O)NC(=O)[C@H](CCCCN)NC(=O)[C@@H](NC(=O)[C@H](CCCCN)NC(=O)[C@H](CC(N)=O)NC(=O)[C@H](CCCNC(=N)N)NC(=O)[C@H](Cc1ccccc1)NC(=O)[C@H](CCCCN)NC(=O)[C@H](CCCNC(=N)N)NC(=O)[C@H](CC(C)C)NC(=O)[C@H](CCCNC(=N)N)NC(=O)[C@H](CCCCN)NC(=O)[C@H](CCCNC(=N)N)NC(=O)[C@H](CC(C)C)NC(=O)CN)[C@@H](C)CC)C(=O)NCC(=O)N[C@@H](CCC(N)=O)C(=O)N[C@@H](CCCCN)C(=O)N[C@H](C(=O)N[C@@H](CCC(N)=O)C(=O)NCC(=O)N[C@@H](Cc1ccccc1)C(=O)N[C@H](C(=O)N1CCC[C@H]1C(=O)N[C@@H](CCCCN)C(=O)N[C@@H](CC(C)C)C(=O)N[C@@H](C)C(=O)N1CCC[C@H]1C(=O)N[C@@H](CCCNC(=N)N)C(=O)N[C@H](C(=O)N[C@@H](CC(=O)O)C(=O)N[C@@H](Cc1ccc(O)cc1)C(=O)O)[C@@H](C)O)C(C)C)[C@@H](C)CC the lethal concentration was 1.21 µM (inhibition zone; ATCC 14028; LB agar, overnight).
For NCC(=O)NCC(=O)N[C@@H](Cc1c[nH]cn1)C(=O)O, the MIC was greater than 476 µM.
With CC(C)=CCc1cc2c(cc1O)OCc1c-2oc2c(CC=C(C)C)c(O)ccc12 the MIC was 128 µg/mL (microbial growth; TYPHI).
For Oc1c(Br)ccc2cccnc12, the MIC was 71.4 µM (microbial growth, agar dilution; ATCC10708 CHOLERAESUIS).
COc1c2c(cc3c1[C@@H]1Oc4c(ccc(O)c4CC=C(C)C)[C@@H]1CO3)OC(C)(C)C=C2 gave an MIC of 128 µg/mL (microbial growth; TYPHI).
CC[C@H](C)[C@H](NC(=O)[C@H](CCCCN)NC(=O)[C@H](CCCCN)NC(=O)[C@H](CC(C)C)NC(=O)[C@H](CCCCN)NC(=O)[C@H](CCC(=O)O)NC(=O)[C@H](CCCCN)NC(=O)[C@@H](NC(=O)[C@H](CCCCN)NC(=O)[C@H](CC(N)=O)NC(=O)[C@H](CCCNC(=N)N)NC(=O)[C@H](Cc1ccccc1)NC(=O)[C@H](CCCCN)NC(=O)[C@H](CCCNC(=N)N)NC(=O)[C@H](CC(C)C)NC(=O)[C@H](CCCNC(=N)N)NC(=O)[C@H](CCCCN)NC(=O)[C@H](CCCNC(=N)N)NC(=O)[C@H](CC(C)C)NC(=O)[C@@H](N)CCCNC(=N)N)[C@@H](C)CC)C(=O)NCC(=O)N[C@@H](CCC(N)=O)C(=O)N[C@@H](CCCCN)C(=O)N[C@H](C(=O)N[C@@H](CCC(N)=O)C(=O)NCC(=O)N[C@@H](Cc1ccccc1)C(=O)N[C@H](C(=O)N1CCC[C@H]1C(=O)N[C@@H](CCCCN)C(=O)N[C@@H](CC(C)C)C(=O)N[C@@H](CCC(N)=O)C(=O)N1CCC[C@H]1C(=O)N[C@@H](CO)C(=O)N[C@@H](CCCCN)C(=O)N[C@@H](CCC(N)=O)C(=O)N[C@@H](CO)C(=O)O)C(C)C)[C@@H](C)CC gave a lethal concentration of 1.08 µM (inhibition zone; ATCC 14028; LB agar, overnight).
COc1ccc2c(oc3c4ccc(O)cc4oc(=O)c23)c1CC=C(C)C has an MIC of 128 µg/mL (microbial growth; TYPHI).
With Cc1c2oc3c(C)ccc(C(=O)N[C@@H]4C(=O)N[C@H](C(C)C)C(=O)N5[C@@H](C)CC[C@H]5C(=O)N(C)CC(=O)N(C)[C@@H](C(C)C)C(=O)O[C@@H]4C)c3nc-2c(C(=O)N[C@@H]2C(=O)N[C@H](C(C)C)C(=O)N3CC(=O)C[C@H]3C(=O)N(C)CC(=O)N(C)[C@@H](C)C(=O)O[C@@H]2C)c(N)c1=O the MIC was greater than 9.57 µg/mL (broth microdilution; ATCC 10708; 16 to 48 h).

Excerpt of the above:
With CC(C)=CCc1cc2c(cc1O)OCc1c-2oc2c(CC=C(C)C)c(O)ccc12 the MIC was 128 µg/mL (microbial growth; TYPHI).
For Oc1c(Br)ccc2cccnc12, the MIC was 71.4 µM (microbial growth, agar dilution; ATCC10708 CHOLERAESUIS).
